Experimental data from different studies.
Each numbered part is a random draw from the data of one study; scales do not carry over between parts.
Chain of UniProt O00329 (whole entry, looked up): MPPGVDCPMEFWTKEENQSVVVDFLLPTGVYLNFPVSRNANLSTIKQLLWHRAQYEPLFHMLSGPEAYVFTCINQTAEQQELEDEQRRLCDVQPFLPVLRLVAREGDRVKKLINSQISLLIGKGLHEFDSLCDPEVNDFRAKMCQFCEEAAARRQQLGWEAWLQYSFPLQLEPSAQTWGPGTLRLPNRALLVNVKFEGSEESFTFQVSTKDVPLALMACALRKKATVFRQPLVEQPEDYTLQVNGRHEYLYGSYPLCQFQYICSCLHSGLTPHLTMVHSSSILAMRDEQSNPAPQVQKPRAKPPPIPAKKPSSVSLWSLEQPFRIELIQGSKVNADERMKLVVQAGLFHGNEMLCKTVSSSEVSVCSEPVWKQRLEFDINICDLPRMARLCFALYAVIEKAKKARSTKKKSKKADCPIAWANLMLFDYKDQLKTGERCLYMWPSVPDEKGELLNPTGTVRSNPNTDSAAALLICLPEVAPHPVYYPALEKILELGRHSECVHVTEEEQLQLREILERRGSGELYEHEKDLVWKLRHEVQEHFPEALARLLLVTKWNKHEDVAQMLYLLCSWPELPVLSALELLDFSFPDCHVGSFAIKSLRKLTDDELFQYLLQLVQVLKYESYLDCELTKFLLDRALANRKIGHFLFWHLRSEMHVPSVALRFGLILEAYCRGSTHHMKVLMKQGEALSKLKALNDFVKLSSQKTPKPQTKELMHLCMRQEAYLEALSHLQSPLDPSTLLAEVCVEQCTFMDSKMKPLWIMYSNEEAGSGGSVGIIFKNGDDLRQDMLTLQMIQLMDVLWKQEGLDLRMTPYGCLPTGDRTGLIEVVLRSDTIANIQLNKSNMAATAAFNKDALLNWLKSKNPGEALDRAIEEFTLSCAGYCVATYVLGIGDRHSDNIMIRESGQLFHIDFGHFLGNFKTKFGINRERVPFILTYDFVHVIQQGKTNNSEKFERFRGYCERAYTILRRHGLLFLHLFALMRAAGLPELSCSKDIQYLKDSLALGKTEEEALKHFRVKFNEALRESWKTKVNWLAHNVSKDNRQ
Chain of UniProt Q96BR1 (whole entry, looked up): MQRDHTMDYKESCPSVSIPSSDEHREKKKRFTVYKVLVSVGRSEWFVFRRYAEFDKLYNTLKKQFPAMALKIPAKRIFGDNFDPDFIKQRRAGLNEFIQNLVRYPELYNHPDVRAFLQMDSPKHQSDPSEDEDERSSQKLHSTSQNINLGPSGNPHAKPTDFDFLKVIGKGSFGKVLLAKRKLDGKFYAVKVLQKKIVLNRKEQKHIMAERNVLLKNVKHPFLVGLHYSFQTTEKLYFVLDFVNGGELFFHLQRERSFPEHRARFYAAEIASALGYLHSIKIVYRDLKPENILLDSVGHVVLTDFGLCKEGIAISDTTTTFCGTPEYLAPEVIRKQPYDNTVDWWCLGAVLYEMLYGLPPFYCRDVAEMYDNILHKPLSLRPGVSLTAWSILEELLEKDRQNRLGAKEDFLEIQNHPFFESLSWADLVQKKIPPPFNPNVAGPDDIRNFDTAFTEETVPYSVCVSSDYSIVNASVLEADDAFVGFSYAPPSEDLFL

Set 1
Target: Tyrosine-protein kinase Mer (MERTK, Homo sapiens, UniProt Q12866)
Chain of UniProt Q12866 (whole entry, looked up): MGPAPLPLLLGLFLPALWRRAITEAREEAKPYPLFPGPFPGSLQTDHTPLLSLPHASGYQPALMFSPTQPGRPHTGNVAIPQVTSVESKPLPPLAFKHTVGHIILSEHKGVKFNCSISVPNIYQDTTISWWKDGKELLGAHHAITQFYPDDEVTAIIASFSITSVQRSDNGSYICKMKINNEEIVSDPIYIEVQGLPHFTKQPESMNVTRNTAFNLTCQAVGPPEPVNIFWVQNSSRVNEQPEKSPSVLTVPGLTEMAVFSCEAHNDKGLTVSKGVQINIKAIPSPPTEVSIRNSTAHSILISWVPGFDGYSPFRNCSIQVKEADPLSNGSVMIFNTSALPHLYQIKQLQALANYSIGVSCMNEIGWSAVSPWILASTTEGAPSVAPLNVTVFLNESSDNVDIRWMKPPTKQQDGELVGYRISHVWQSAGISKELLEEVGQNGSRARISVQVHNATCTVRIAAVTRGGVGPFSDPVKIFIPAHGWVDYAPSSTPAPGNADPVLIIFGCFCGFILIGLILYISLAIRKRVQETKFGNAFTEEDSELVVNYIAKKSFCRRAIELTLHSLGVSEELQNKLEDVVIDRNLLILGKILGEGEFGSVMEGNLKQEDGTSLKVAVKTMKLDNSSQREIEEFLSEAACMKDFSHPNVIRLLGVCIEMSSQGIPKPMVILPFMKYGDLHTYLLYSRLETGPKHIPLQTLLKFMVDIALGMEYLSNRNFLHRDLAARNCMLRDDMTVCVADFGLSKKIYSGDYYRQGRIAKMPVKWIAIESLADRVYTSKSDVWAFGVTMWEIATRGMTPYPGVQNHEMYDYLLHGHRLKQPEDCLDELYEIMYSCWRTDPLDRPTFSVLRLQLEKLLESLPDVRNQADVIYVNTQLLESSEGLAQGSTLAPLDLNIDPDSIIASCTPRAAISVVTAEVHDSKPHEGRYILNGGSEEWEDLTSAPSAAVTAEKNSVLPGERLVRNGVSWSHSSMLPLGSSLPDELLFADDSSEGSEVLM
Read-out: enzyme activity
Mode: inhibitor
Tested at: 0.5 µM
Reference: control
Compound	remaining activity [%]
COc1cc2ncnc(Nc3ccc(F)c(Cl)c3)c2cc1OCCCN1CCOCC1	95.9
CO[C@H]1C[C@@H]2CC[C@@H](C)[C@@](O)(O2)C(=O)C(=O)N2CCCC[C@H]2C(=O)O[C@H]([C@H](C)C[C@@H]2CC[C@@H](O)[C@H](OC)C2)CC(=O)[C@H](C)/C=C(\C)[C@@H](O)[C@@H](OC)C(=O)[C@H](C)C[C@H](C)/C=C/C=C/C=C/1C	90.9
O=c1c2ccccc2[nH]c(=S)n1CCN1CCC(=C(c2ccc(F)cc2)c2ccc(F)cc2)CC1	97
O=C1NC(=O)C(c2cn(CCCO)c3ncccc23)=C1c1cnccn1	78.7
O=C1NC(=O)C(c2cn(CCCn3ccnc3)c3ccccc23)=C1Nc1ccccc1	86.1
OCC(O)CCON=C1C(c2c(O)[nH]c3ccccc23)=Nc2ccccc21 (stereo not drawn)	49.4
Nc1ncnc2n[nH]c(Nc3ccc(F)cc3)c12	90.7
N#CC(C#N)=C(N)/C(C#N)=C/c1ccc(O)cc1	93.5
COc1cc2ncnc(Nc3ccc(Oc4ccccc4)cc3)c2cc1OC	51.2
Cc1nc(-c2ccccc2)c(-c2ccncc2)o1	85.6
CC(C)[C@H](CO)Nc1nc(Nc2cc(N)cc(Cl)c2)c2ncn(C(C)C)c2n1	79.7
COc1ccc(C(=O)Nc2sc3c(c2C(N)=O)CCCC3)cc1OC	85.4
CNC(=O)c1cc(Oc2ccc(NC(=O)Nc3ccc(Cl)c(C(F)(F)F)c3)cc2)ccn1	88.2
Cc1cccc(-c2[nH]c(C(C)(C)C)nc2-c2ccc3c(c2)OCO3)n1	82
NCCNc1ncc(C(N)=O)c(Nc2cccc(C(F)(F)F)c2)n1	88.4
CN(C)c1ccc(C=C2C(=O)Nc3ccccc32)cc1	92.7

Set 2
SMILES: C[C@@H]1CN(c2cc(-c3n[nH]c4ccc(OC5(C)CC5)cc34)ncn2)C[C@H](C)O1
Read-out: cell-free assay
Technique: competition with immobilised ligand
Tested at: 0.1 µM
target	remaining binding
Rhodopsin kinase GRK1 (GRK1, Homo sapiens, UniProt Q15835)	83%
Calcium/calmodulin-dependent protein kinase type 1B (PNCK, Homo sapiens, UniProt Q6P2M8)	67%
Focal adhesion kinase 1 (PTK2, Homo sapiens, UniProt Q05397)	81%
Non-receptor tyrosine-protein kinase TYK2, JH2 (TYK2, Homo sapiens, UniProt P29597)	76%
Ribosomal protein S6 kinase alpha-5, C-terminal kinase domain (RPS6KA5, Homo sapiens, UniProt O75582)	89%
G protein-coupled receptor kinase 3 (GRK3, Homo sapiens, UniProt P35626)	91%
Wee1-like protein kinase (WEE1, Homo sapiens, UniProt P30291)	97%
Citron Rho-interacting kinase (CIT, Homo sapiens, UniProt O14578)	69%
Phosphatidylinositol 4,5-bisphosphate 3-kinase catalytic subunit delta isoform (PIK3CD, Homo sapiens, UniProt O00329)	68%

Set 3
Compound: O=C(Nc1cnn(-c2csc(C(=O)NC3COC3)c2)c1)Nc1ccccc1Cl
Read-out: enzyme activity
Tested at: 5 µM
Reference: untreated control
target	remaining activity
cAMP-dependent protein kinase catalytic subunit alpha (PRKACA, Homo sapiens, UniProt P17612)	96.8%
Cyclin-dependent kinase 18, with cyclin Y (CDK18, Homo sapiens, UniProt Q07002)	98.8%
Serine/threonine-protein kinase BRSK2 (BRSK2, Homo sapiens, UniProt Q8IWQ3)	101%
Calcium/calmodulin-dependent protein kinase kinase 2 (CAMKK2, Homo sapiens, UniProt Q96RR4)	84.1%
3-phosphoinositide-dependent protein kinase 1 (PDPK1, Homo sapiens, UniProt O15530)	94.3%
Serine/threonine-protein kinase Sgk3 (SGK3, Homo sapiens, UniProt Q96BR1)	86.5%

Set 4
Target: DNA polymerase theta, ATPase domain (POLQ, Homo sapiens, UniProt O75417)
Chain of UniProt O75417 (whole entry, unmodified, looked up): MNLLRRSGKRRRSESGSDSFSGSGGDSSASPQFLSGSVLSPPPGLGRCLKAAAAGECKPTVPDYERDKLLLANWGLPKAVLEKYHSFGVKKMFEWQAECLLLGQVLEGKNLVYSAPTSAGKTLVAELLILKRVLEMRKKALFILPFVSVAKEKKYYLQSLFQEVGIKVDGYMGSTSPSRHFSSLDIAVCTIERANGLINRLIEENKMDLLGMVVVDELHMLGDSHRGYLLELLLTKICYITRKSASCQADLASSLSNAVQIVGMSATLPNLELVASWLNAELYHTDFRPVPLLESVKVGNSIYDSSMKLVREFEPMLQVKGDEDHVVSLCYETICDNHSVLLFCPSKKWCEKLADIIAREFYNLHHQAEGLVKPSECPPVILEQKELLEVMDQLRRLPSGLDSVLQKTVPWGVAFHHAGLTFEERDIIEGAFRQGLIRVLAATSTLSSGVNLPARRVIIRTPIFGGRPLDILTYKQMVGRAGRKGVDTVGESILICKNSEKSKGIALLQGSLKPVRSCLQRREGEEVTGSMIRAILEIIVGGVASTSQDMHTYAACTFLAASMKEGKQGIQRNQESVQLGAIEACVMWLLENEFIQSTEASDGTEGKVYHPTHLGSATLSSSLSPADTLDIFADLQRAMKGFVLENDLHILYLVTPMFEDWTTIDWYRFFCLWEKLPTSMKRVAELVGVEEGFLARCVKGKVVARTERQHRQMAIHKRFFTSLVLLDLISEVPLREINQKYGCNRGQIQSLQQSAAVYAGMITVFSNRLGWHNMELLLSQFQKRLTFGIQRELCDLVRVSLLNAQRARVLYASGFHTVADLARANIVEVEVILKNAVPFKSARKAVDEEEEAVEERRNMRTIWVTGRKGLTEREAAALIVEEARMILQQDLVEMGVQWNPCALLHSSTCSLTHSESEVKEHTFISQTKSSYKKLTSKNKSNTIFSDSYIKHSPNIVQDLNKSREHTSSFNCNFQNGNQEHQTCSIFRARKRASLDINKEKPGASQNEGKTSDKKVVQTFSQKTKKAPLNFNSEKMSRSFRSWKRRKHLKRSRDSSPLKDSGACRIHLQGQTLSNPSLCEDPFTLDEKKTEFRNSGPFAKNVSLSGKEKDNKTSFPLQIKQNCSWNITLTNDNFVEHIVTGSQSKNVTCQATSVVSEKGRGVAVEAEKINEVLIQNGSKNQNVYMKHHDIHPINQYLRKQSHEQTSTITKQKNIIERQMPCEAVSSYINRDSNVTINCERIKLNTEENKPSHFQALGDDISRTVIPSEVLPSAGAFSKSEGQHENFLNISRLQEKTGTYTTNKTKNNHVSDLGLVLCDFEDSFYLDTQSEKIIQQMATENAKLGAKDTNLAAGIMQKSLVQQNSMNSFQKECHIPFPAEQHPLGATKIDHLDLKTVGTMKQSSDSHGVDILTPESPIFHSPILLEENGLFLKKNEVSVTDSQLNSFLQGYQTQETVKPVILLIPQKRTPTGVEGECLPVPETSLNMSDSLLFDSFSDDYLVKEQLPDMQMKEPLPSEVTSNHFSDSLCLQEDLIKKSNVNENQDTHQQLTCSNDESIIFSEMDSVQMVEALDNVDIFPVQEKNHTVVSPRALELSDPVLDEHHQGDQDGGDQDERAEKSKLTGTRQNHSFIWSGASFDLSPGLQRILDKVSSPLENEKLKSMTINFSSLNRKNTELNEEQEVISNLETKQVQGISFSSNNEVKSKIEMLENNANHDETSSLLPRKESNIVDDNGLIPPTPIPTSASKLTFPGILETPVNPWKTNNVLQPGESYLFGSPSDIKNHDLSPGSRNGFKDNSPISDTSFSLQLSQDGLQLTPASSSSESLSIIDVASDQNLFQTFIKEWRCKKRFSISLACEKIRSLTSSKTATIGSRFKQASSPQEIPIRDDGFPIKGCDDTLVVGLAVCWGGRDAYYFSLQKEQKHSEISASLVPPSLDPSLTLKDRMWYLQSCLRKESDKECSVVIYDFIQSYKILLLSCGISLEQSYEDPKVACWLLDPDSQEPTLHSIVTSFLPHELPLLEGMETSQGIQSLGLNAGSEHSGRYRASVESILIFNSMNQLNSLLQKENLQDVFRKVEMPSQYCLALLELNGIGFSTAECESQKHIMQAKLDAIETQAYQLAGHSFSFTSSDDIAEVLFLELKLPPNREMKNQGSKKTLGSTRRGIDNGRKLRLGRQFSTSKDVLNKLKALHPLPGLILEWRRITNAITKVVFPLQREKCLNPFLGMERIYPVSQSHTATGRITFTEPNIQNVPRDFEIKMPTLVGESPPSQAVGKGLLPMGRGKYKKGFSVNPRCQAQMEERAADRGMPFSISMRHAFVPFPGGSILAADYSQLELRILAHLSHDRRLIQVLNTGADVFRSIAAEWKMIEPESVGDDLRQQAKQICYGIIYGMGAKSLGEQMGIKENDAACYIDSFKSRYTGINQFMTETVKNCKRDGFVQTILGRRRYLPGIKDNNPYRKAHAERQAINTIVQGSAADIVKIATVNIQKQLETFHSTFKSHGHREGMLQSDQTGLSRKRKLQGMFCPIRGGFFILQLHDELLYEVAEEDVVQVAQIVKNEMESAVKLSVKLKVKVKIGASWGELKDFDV
Read-out: enzyme activity
Mode: inhibitor
Tested at: 77 µM
Reference: untreated
SMILES	remaining activity [%]
Fc1ccc(C(OCCCc2cnc[nH]2)c2ccc(F)cc2)cc1	98.8
C/C=C1\NC(=O)[C@H]2CSSCC/C=C/[C@H](CC(=O)N[C@H](C(C)C)C(=O)N2)OC(=O)[C@H](C(C)C)NC1=O	101
COc1cc(OC)c(/C=C/S(=O)(=O)Cc2ccc(OC)c(NCC(=O)O)c2)c(OC)c1	100
Nc1c2c(nc3ccccc13)CCCC2O (stereo not drawn)	102
Cc1ccc(S(=O)(=O)n2c(N)nc3ccccc32)cc1	99.6
Nc1ncnc2c1nc(Br)n2[C@@H]1O[C@@H]2COP(=O)(O)O[C@H]2[C@H]1O	101
CN(NC(=O)CC(=O)NN(C)C(=S)c1ccccc1)C(=S)c1ccccc1	92.4
CC(=O)c1cc2ccccc2oc1=O	106

For quick reference, copied from above (set 1):
Compound	remaining activity [%]
O=c1c2ccccc2[nH]c(=S)n1CCN1CCC(=C(c2ccc(F)cc2)c2ccc(F)cc2)CC1	97
O=C1NC(=O)C(c2cn(CCCO)c3ncccc23)=C1c1cnccn1	78.7
O=C1NC(=O)C(c2cn(CCCn3ccnc3)c3ccccc23)=C1Nc1ccccc1	86.1
OCC(O)CCON=C1C(c2c(O)[nH]c3ccccc23)=Nc2ccccc21 (stereo not drawn)	49.4
